Results gathered from unrelated publications.
Compare with care: the assays were run in different laboratories. Several values in a cell are separate wells, animals, samples, runs or records. ± gives the spread as reported.

SMILES	target or system	test	system	conditions	how to read	endpoint	result
Cn1cc(-c2ccc(-c3cncc(Cl)c3N3CCC4(CCNC4=O)CC3)cc2)cn1	COLO 205	gene expression, microarray, item: HIST4H4 mRNA	–	concentration not given, 2 h	reference: untreated cells	log2 fold change	-3.39
Cc1nc(NC(=O)N2CCC[C@H]2C(N)=O)sc1-c1ccnc(C(C)(C)C(F)(F)F)c1	MFM-223	cell growth, CellTiter-Glo	–	120 h	–	Hill coefficient GR curve	1.58
Cn1cc(-n2cnc3c(NCc4nc5cc(Cl)c(Cl)cc5[nH]4)nc(N4CCOCC4)nc32)cn1	MDA-MB-231	cell viability, CellCounting-Lite	–	222.2 nM, 37 °C	higher = more viable cells	luminescence signal	9770 a.u. and 12300 a.u. and 11500 a.u.
O=c1ccn([C@@H]2O[C@H](CO)[C@@H](O)[C@H]2O)c(=O)[nH]1	activated human T cells	–	human	31.6 µM	–	T cell proliferation	104% and 111% and 109% and 99.4%
COc1cnc2cccc(N3CCc4c(cc(Cn5ccnc5C)cc4-c4cn(C)nc4C(F)(F)F)C3=O)c2c1	Li-7	cell growth, inhibitor	–	120 h	–	EC50	903 nM
Cn1cc(Nc2nccc(-c3ccc4c(c3)CN(C3COC3)CC[C@H]4NC(=O)c3cn(C(C)(C)C)nn3)n2)cn1	mouse splenic B cells	item: Dopamine degradation	–	30 mg/kg, IgD-activated in vivo	reference: vehicle, direction not given	pathway activation z-score	1.34
CSCC[C@H](NC(=O)[C@H](Cc1ccc(OS(=O)(=O)O)cc1)NC(=O)[C@@H](N)CC(=O)O)C(=O)NCC(=O)N[C@@H](Cc1c[nH]c2ccccc12)C(=O)N[C@@H](CCSC)C(=O)N[C@@H](CC(=O)O)C(=O)N[C@@H](Cc1ccccc1)C(N)=O	HEK293T control virus	agonist, GloSensor cAMP	–	0.128 nM, no receptor expressed	higher = more cAMP	cAMP accumulation	0.207 a.u.
C/C=C/C/C=C/CCC(=O)[C@H]1O[C@H]1C(N)=O	MDA-MB-231, BAX/BAK siRNA knockdown	cell viability, CellTiter-Glo	–	–	direction not given	Z score	-1.1
Nc1cccc2c1C(=O)N(C1CCC(=O)NC1=O)C2=O (centres unmarked)	MM1.S resistant to compound	XTT	–	0.8 µM	–	viability	57% and 60% and 99%
Oc1cccc(-c2nc(N3CCOCC3)c3oc4ncccc4c3n2)c1	SNU-1040	–	–	0.33 µM, 72 h, 100% DMSO	reference: vehicle	cell growth	100%
CCCCc1oc2ccc(NS(C)(=O)=O)cc2c1C(=O)c1ccc(OCCCN(CCCC)CCCC)cc1	human embryonic stem cell aggregates	mRNA level, microarray, item: MAP6	–	0.5 µM, 120 h	reference: untreated, up-regulated	fold change	1.9 fold
O=C(/C=C/C=C/C=C/C1CCCCC1)NC1=C[C@@](O)(/C=C/C=C/C=C/C(=O)NC2=C(O)CCC2=O)[C@@H]2O[C@@H]2C1=O	YAPC	cell growth, CellTiter-Glo	–	78 h	–	GI50	19900 nM
CCCCCCCCCCCCCCCCCCOc1ccccc1CC(=O)OCCC[N+](C)(C)C	NSCLC panel (nine cell lines)	–	–	10 µM	–	mean growth inhibition	37.2%
COc1ccc(-n2nc(C(C)=O)s/c2=N\N=C(/C)c2ccc(NC(=O)c3ccc(C)cc3)cc2)cc1	HepG2	–	–	10 µM	–	toxicity	97.3%
COc1ccc([C@H]2N(c3ccc(Cl)c(Cl)c3)C(=O)[C@@H]3CCCN32)c(OC)c1OC (racemic)	PC-12	–	–	50 µM, 2 days	–	mutant huntingtin protein level	no effect
Nc1ncnc2c1ncn2[C@@H]1O[C@H](CO)[C@@H](O)[C@H]1O	activated human T cells	–	–	3.16 µM	higher = more proliferation	T cell proliferation	64.6 a.u. and 67.8 a.u. and 65 a.u.
COc1cc2ncnc(Nc3ccc(Oc4ccccc4)cc3C)c2cc1OC.O=C(O)C(F)(F)F	SW-620 (KRAS G12V)	resazurin	–	concentration not given, 72 h, with: trametinib	direction not given	Bliss synergy score	153%
CCn1cc(-c2cc(Cn3ccnc3)cc3c2CCN([C@H](c2cc(OC)ccn2)C2CC2)C3=O)c(C(F)(F)F)n1	KLE	cell growth, inhibitor	–	120 h	–	EC50	10000 nM
C=CS(=O)(=O)Nc1ccc(OC)c(-c2c[nH]c3ncc(-c4cncc(C(=O)N(C)C)c4)cc23)c1	Ba/F3 BCR-ABL wild type	cell proliferation	–	72 h	–	GI50	> 1000 nM
C=CC(=O)N1[C@@H](c2ccc3c(c2)OCO3)c2[nH]c3ccccc3c2C[C@H]1C(=O)NC	rat DRG neurons	–	–	30 µM, 48 h, with: vincristine 40 nM	–	neuron degeneration	18.3% and 15.9%
C[C@]12CCCN1CC1=NNC(=O)c3cc(F)cc4[nH]c2c1c34	AZ-521 gastric cancer cells	cell viability	–	concentration not given, with: with temozolomide	–	EC50	1000 nM
CCCC(=O)Oc1c(C)c(O)c(C(=O)/C=C/c2ccccc2)c(OC)c1C	SH-SY5Y	SRB	–	–	reference: normal over SH-SY5Y IC50	selectivity index	1.19
Nc1ncnc2nc(-c3ccc(N4CCOCC4)nc3)cc(-c3cccc(Br)c3)c12	activated human T cells	–	human	1 µM	–	T cell proliferation	89.6% and 96.2% and 90.9%
COc1cc(/C=C/C(=O)N2CCC=CC2=O)cc(OC)c1OC	MDA-MB-468	qRT-PCR, item: GSS	–	30 µM, 6 h	reference: time zero	mRNA level	117 ± 11.3%

SMILES	target or system	test	system	conditions	how to read	endpoint	result
CCCCN1C[C@H](O)[C@@H](O)[C@H](O)[C@H]1CO	Sandhoff disease patient fibroblasts	glycosphingolipid lowering, LC-MS/MS, item: GM3 d18:1/22:0	human	–	–	IC50	6950 nM
CCc1cnc(N2CCC(c3nc(COc4ccc(-n5cnnn5)cc4)cs3)CC2)nc1	HEK-293T	RNA-seq GSEA, item: HALLMARK_ESTROGEN_RESPONSE_EARLY	–	concentration not given	direction not given	normalized enrichment score	0.964
CCCCCCCCCCCCCCCCCCOc1cccc(CC(=O)OCC[N+]2(C)CCCC2)c1	NSCLC panel (nine cell lines)	–	–	10 µM	–	mean growth inhibition	16.9%
CCn1cc(-c2cc(Cn3ccoc3=N)cc3c2CCN([C@@H](C)c2cc(OC)ccn2)C3=O)c(C(F)(F)F)n1	PLC-PRF-5	cell growth, inhibitor	–	120 h	–	EC50	2650 nM
CC1(C)CCC(CN2CCN(c3ccc(C(=O)NS(=O)(=O)c4ccc(NCC5CCOCC5)c([N+](=O)[O-])c4)c(Oc4cnc5[nH]ccc5c4)c3)CC2)=C(c2ccc(Cl)cc2)C1	KCL-22	annexin V/PI flow cytometry, item: annexin V+/PI-	–	3.2 µM, 24 h	–	early apoptotic cells	13.8%
O=c1[nH]nc(OCCCc2ccc(Cl)cc2)c(NCc2cccnc2)c1Br	HEK293T	RNA-seq, item: PON2 mRNA	–	10 µM, 6 h	reference: vehicle	log2 fold change	-0.0979
C=Cc1c2[n-]c(c1C)/C=c1\[n-]/c(c(C)c1C=C)=C\c1[n-]c(c(CCC(=O)O)c1C)/C=c1\[n-]c(c(C)c1CCC(=O)O)=C2.[Sn+4]	SH-SY5Y	RNA-seq, item: IL4R mRNA	–	5 µM, 5 h	reference: untreated cells	fold change	2.85
C[C@H]1[C@@H](O)O[C@@H]2O[C@@]3(C)CC[C@H]4[C@H](C)CC[C@@H]1[C@@]24OO3	KCL-22	annexin V/PI flow cytometry, item: annexin V+/PI+	–	3.2 µM, 24 h	–	late apoptotic cells	0.9%
C=CCn1c(=O)c2cnc(Nc3ccc(N4CCN(C)CC4)cc3)nc2n1-c1ccc2c(n1)[C@@](O)(CC)CC2	MDA-MB-231	flow cytometry	–	concentration not given	–	EdU-negative S phase cells	25.4%
FC(F)(F)C1=C/C(=C\CCCCCCOCc2ccccc2)c2cc3c(cc21)OCO3	MM1.S bortezomib-resistant	Western blot	–	0.5 µM, 8 h	–	Nrf2 stabilization	no effect
CC(C)Cn1cnc2c(N)nc3ccccc3c21	THP-1-derived macrophages	induction, ELISA	–	10 µg/mL, 24 h	reference: untreated	IL-8 level	21 fold
O=C(Cc1cccnc1)Nc1ccc(C2CCCCC2)cc1	–	–	rat liver microsomes	1 µM	–	hepatic clearance	48 mL/min/kg
Nc1ccn([C@@H]2O[C@H](CO)[C@@H](O)[C@H]2O)c(=O)n1	activated human T cells	–	–	concentration not given	reference: DMSO	T cell proliferation	108% and 102% and 101% and 105% and 100%
Cc1nn(-c2nc3c(F)cc(F)cc3s2)c(O)c1C(c1ccc(C(F)(F)F)cc1)c1c(C)nn(-c2nc3c(F)cc(F)cc3s2)c1O	RAW-ISG	RT-qPCR, item: IFNB1	–	10 µM, unit not given, with: poly(I:C)	reference: vehicle	mRNA level	1.01
COc1c(C)c(OC)c(C(=O)/C=C/c2ccccc2)c(OC)c1C	SH-SY5Y	SRB	–	–	reference: normal over SH-SY5Y IC50	selectivity index	1.49
CN1C[C@H](COc2nccc3c(NCc4ccco4)cc(Cl)nc23)OC1=O	iPSC-derived cardiomyocytes, GLA mutant	–	–	concentration not given	reference: untreated	Gb3 accumulation decrease	31.8%
COc1ncc(-c2ccc3nccc(-c4ccnnc4)c3c2)cc1NS(=O)(=O)c1ccc(F)cc1F	SNU-1040	–	–	0.33 µM, 72 h, 100% DMSO	reference: vehicle	cell growth	63.1%
O=C(c1ccc(C2CCCCC2)cc1)N1CC(O)C1	–	liver microsome stability	mouse liver microsomes	1 µM	–	hepatic clearance	82 mL/min/kg
O=C(C[C@@H](C(F)F)n1ccc(F)n1)N1CCC(O)(Cn2cnc3c(cnn3-c3ccc(F)cc3)c2=O)CC1	CHP-212 USP7 V517F knock-in clone	SRB	–	0.08231 µM	–	viability	93.6%
Cc1cc(Nc2ncc(Cl)c(Nc3ccccc3S(=O)(=O)C(C)C)n2)c(OC(C)C)cc1C1CCNCC1	CLB-GE	phosphoproteomics LC-MS/MS, item: NEK9 phosphorylation	–	200 nM, 60 min	reference: untreated	log2 fold change	-1.67
CC(C)NCC(O)c1ccc(O)c(O)c1 (centres unmarked)	mouse ventricular cardiomyocytes	–	–	dose not given, 0.363 s	–	sarcomere length	1.8 µm
OCCCNc1cc(-c2ccnc(Nc3cccc(Cl)c3)n2)ccn1	SNU-1040	–	–	330 nM, 3 days, 100% DMSO	reference: vehicle	cell growth	47%
C=CC[C@@H]1c2ccc(OC)c(OC)c2CN2CCc3cc4c(cc3[C@H]12)OCO4	HEK293 transfected	ATP-evoked current, whole-cell patch clamp	–	30 µM, mutant Y295A	–	normalised current	0.6 and 0.777 and 0.584
